Experimental data gathered from unrelated publications.
Compare with care: the assays were run in different laboratories. Values joined by “and” are separate records of one study, mostly repeats; a detail may differ. Converted amounts (≈) assume the structure as drawn.

CC(C)C[C@H](NC(=O)CNC(=O)CNC(=O)CNC(=O)[C@H](Cc1ccc(O)cc1)NC(=O)[C@H](CC(C)C)NC(=O)[C@@H](NC(=O)CNC(=O)[C@H](Cc1ccc(O)cc1)NC(=O)[C@H](CCCCN)NC(=O)[C@H](CC(N)=O)NC(=O)[C@@H](NC(=O)[C@H](CCCCN)NC(=O)[C@H](Cc1c[nH]c2ccccc12)NC(=O)CN)[C@@H](C)O)[C@@H](C)O)C(=O)N[C@@H](CCCCN)C(=O)N[C@@H](CCCCN)C(=O)N[C@@H](CC(C)C)C(=O)N[C@@H](CC(C)C)C(=O)N[C@@H](CC(C)C)C(=O)N[C@@H](CC(C)C)C(=O)N[C@@H](CC(C)C)C(=O)N[C@@H](CCCCN)C(=O)N[C@@H](CCCCN)C(=O)N[C@@H](CC(C)C)C(=O)NCC(=O)O  MIC (Staphylococcus aureus; ATCC 25923; with: 1 mM MgCl2): 16 µg/mL (≈ 5.59 µM)
CN[C@H](CC(C)C)C(=O)N[C@H]1C(=O)N[C@@H](CC(N)=O)C(=O)N[C@H]2C(=O)N[C@H]3C(=O)N[C@H](C(=O)N[C@H](C(=O)O)c4cc(O)cc(O)c4-c4cc3ccc4O)[C@H](O)c3ccc(c(Cl)c3)Oc3cc2cc(c3O[C@@H]2O[C@H](CO)[C@@H](O)[C@H](O)[C@H]2O[C@H]2C[C@](C)(N)[C@H](O)[C@H](C)O2)Oc2ccc(cc2Cl)[C@H]1O  MBC (Staphylococcus aureus; CAAS-2019-CAAS-2019-02 clinical drug-resistant isolate, PBS): 2 µg/mL (≈ 1.38 µM)
Cc1cc(Nc2nc(N[C@@H](C)c3ncc(F)cn3)ncc2Cl)n[nH]1  maximum inhibition (human coronavirus OC43; virus-induced cell killing; MRC-5; screen): 4.91%
Cc1c2c(nn1C)CSCc1cc(n(C)n1)CSc1cc(c3ccccc3c1)OCCCc1c(C(=O)O)n(C)c3c-2c(Cl)ccc13  log2 fold change (Staphylococcus aureus; label-free quantitative proteomics, item: SAOUHSC_02979 protein; SA113; concentration not given; baseline: untreated control): -3.75
CC[C@H](C)[C@H](NC(=O)[C@H](CCCCN)NC(=O)[C@H](CCCCN)NC(=O)[C@H](Cc1ccccc1)NC(=O)[C@@H](NC(=O)[C@@H](NC(=O)[C@H](CCCNC(=N)N)NC(=O)[C@H](Cc1ccccc1)NC(=O)[C@@H](NC(=O)[C@H](CCCCN)NC(=O)[C@H](CCCCN)NC(=O)[C@@H](N)CCSC)[C@@H](C)CC)C(C)C)[C@@H](C)CC)C(=O)N[C@@H](CC(C)C)C(=O)N[C@@H](CCCCN)C(=O)N[C@@H](CCCNC(=N)N)C(=O)N[C@@H](CC(C)C)C(=O)N[C@H](C(=O)N[C@H](C(=O)O)C(C)C)[C@@H](C)CC  MIC (Staphylococcus aureus; broth microdilution; ATCC 25923; 16 to 18 h): 4 µg/mL (≈ 1.76 µM)
CO/N=C(\C(=O)N[C@@H]1C(=O)N2C(C(=O)O)=C(CSC(=O)c3ccco3)CS[C@H]12)c1csc(N)n1  MBC (Staphylococcus aureus; CAAS-2019-CAAS-2019-10 clinical blaZ-resistant isolate, PBS): 16 µg/mL
CN(C)CC[C@H](CSc1ccccc1)Nc1ccc(S(=O)(=O)NC(=O)c2ccc(N3CCN(Cc4ccccc4-c4ccc(Cl)cc4)CC3)cc2)cc1[N+](=O)[O-]  maximum inhibition (human coronavirus OC43; virus-induced cell killing; MRC-5; maximum over 10 doses): 0%
CC[C@H](C)[C@H](NC(=O)[C@H](C)NC(=O)[C@H](CCCCN)NC(=O)[C@H](CC(C)C)NC(=O)[C@H](C)NC(=O)[C@@H](NC(=O)[C@H](Cc1c[nH]cn1)NC(=O)[C@H](CC(C)C)NC(=O)[C@@H](NC(=O)[C@@H](NC(=O)[C@H](CCCCN)NC(=O)[C@H](C)NC(=O)[C@H](C)NC(=O)[C@H](CO)NC(=O)[C@H](CCCCN)NC(=O)[C@H](Cc1ccccc1)NC(=O)[C@@H](NC(=O)[C@H](CCCCN)NC(=O)[C@H](CC(C)C)NC(=O)[C@H](Cc1ccccc1)NC(=O)[C@H](CO)NC(=O)[C@H](CCCCN)NC(=O)[C@H](Cc1c[nH]c2ccccc12)NC(=O)[C@H](CCCCN)NC(C)=O)[C@@H](C)O)[C@@H](C)O)C(C)C)[C@@H](C)O)C(=O)N[C@@H](CO)C(=O)N[C@@H](CO)C(N)=O  MIC geometric mean (Staphylococcus aureus; MRSA; 130 strains): 5.54 µg/mL (≈ 1.89 µM)
OB(O)c1csc2ccccc12  growth relative to untreated (Staphylococcus aureus; USA300 wild type; 100 µM; baseline: untreated): 58% and 39.4% and 55.6% and 63.3% and 51.3%
C=CC[C@@H]1c2ccc(OC)c(OC)c2CN2CCc3cc4c(cc3[C@H]12)OCO4  relative wound size (Staphylococcus aureus; P2rx7+/+ mice, skin wound infection; dose not given, day 3; baseline: day 0): 1.13
CN[C@H](CC(C)C)C(=O)N[C@H]1C(=O)N[C@@H](CC(N)=O)C(=O)N[C@H]2C(=O)N[C@H]3C(=O)N[C@H](C(=O)N[C@H](C(=O)O)c4cc(O)cc(O)c4-c4cc3ccc4O)[C@H](O)c3ccc(c(Cl)c3)Oc3cc2cc(c3O[C@@H]2O[C@H](CO)[C@@H](O)[C@H](O)[C@H]2O[C@H]2C[C@](C)(N)[C@H](O)[C@H](C)O2)Oc2ccc(cc2Cl)[C@H]1O  MIC (Staphylococcus aureus; MRSA strain 1): 1 µg/mL (≈ 0.69 µM)

Repeated from above:
CC[C@H](C)[C@H](NC(=O)[C@H](C)NC(=O)[C@H](CCCCN)NC(=O)[C@H](CC(C)C)NC(=O)[C@H](C)NC(=O)[C@@H](NC(=O)[C@H](Cc1c[nH]cn1)NC(=O)[C@H](CC(C)C)NC(=O)[C@@H](NC(=O)[C@@H](NC(=O)[C@H](CCCCN)NC(=O)[C@H](C)NC(=O)[C@H](C)NC(=O)[C@H](CO)NC(=O)[C@H](CCCCN)NC(=O)[C@H](Cc1ccccc1)NC(=O)[C@@H](NC(=O)[C@H](CCCCN)NC(=O)[C@H](CC(C)C)NC(=O)[C@H](Cc1ccccc1)NC(=O)[C@H](CO)NC(=O)[C@H](CCCCN)NC(=O)[C@H](Cc1c[nH]c2ccccc12)NC(=O)[C@H](CCCCN)NC(C)=O)[C@@H](C)O)[C@@H](C)O)C(C)C)[C@@H](C)O)C(=O)N[C@@H](CO)C(=O)N[C@@H](CO)C(N)=O  MIC geometric mean (Staphylococcus aureus; MRSA; 130 strains): 5.54 µg/mL (≈ 1.89 µM)
CC(C)C[C@H](NC(=O)CNC(=O)CNC(=O)CNC(=O)[C@H](Cc1ccc(O)cc1)NC(=O)[C@H](CC(C)C)NC(=O)[C@@H](NC(=O)CNC(=O)[C@H](Cc1ccc(O)cc1)NC(=O)[C@H](CCCCN)NC(=O)[C@H](CC(N)=O)NC(=O)[C@@H](NC(=O)[C@H](CCCCN)NC(=O)[C@H](Cc1c[nH]c2ccccc12)NC(=O)CN)[C@@H](C)O)[C@@H](C)O)C(=O)N[C@@H](CCCCN)C(=O)N[C@@H](CCCCN)C(=O)N[C@@H](CC(C)C)C(=O)N[C@@H](CC(C)C)C(=O)N[C@@H](CC(C)C)C(=O)N[C@@H](CC(C)C)C(=O)N[C@@H](CC(C)C)C(=O)N[C@@H](CCCCN)C(=O)N[C@@H](CCCCN)C(=O)N[C@@H](CC(C)C)C(=O)NCC(=O)O  MIC (Staphylococcus aureus; ATCC 25923; with: 1 mM MgCl2): 16 µg/mL (≈ 5.59 µM)
